Published values pooled from the literature.
Every numbered part comes from another study and shows a few of its results, in no order.

Set 1
Target: RING finger protein unkempt homolog, zinc fingers 1-6, GST-SBP tag (UNK, Homo sapiens, UniProt Q9C0B0, residues 30-357)
Sequence of UniProt Q9C0B0 (30-357, looked up): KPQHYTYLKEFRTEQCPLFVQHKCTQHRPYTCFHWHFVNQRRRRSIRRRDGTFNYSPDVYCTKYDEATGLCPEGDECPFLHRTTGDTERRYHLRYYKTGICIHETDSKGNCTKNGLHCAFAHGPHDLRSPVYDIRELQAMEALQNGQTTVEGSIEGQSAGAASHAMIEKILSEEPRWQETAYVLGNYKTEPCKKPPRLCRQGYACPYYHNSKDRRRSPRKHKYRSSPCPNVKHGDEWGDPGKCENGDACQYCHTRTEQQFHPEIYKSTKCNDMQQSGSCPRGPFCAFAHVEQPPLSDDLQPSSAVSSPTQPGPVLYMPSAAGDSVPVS
Method: RNA Bind-n-Seq
Form: RNA
Sample: in vitro
Tested at: not given
Setting: RNA with constant flanks, human and mouse sites, ends assumed
Relative to: input RNA pool
Direction: higher = stronger binding
Strand	bound/input enrichment
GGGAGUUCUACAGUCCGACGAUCGUACCUGACUUUGGGCAACAGGUAUCAAAAGCCUCAAGAGAACAGUUUCUCUGAUAAGAUUAUUUUAUACCAGGGGUCAGAAGACUCCACUCACGGGCCAAGUUUGGCCCAGUCAUUUUUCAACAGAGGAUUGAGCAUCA	0.522 ratio
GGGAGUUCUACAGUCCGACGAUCAGCUUGAUGUACAGAAAACUGAAAAUAUGUAAUGCUCAGUGAUCUUAUUAUUUAGGAGUGUUUUGACUGAUAUAUUUAAAGAUAGAUUAUAUUCAUGCUGUCUUCUGUUGACUUUGAGAACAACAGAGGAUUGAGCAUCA	30.5 ratio
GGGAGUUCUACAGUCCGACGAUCAAUGCACAUGCACAAUAAUUUCCUGAAAGCCAUAGGACAUGUCUGUAGUCAGCACCACGAUAGCACCGUUUCAUGAAAGGCAUGGCGGCUGCAUUUCAUACCACAUCAAAAUACAGUAACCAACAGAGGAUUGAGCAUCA	0.441 ratio
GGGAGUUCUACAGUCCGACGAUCACUUGUUCACUGGAUUGUCUGGGAUGACUUGGGCUCAUAUCCACAAUACUUGGUAUAAGGUAGUAGAUUGUUGGGGGUGGGGAGGGAGGGAUCUAGGAUACAGGGCAGGGAUAAAUACAGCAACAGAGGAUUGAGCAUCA	25.3 ratio
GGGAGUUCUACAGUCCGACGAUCAUAUUUCAUAUUGCAAAGAUGUUUACAAGUAUUUUAAUUUAAGUUCAGUGAACUUUUUUGUAGCUGGGUUAAAUCUUUUUAUUUUUAGUAUGGCCUUAUGGCAAAGAACACUGUAUUAUUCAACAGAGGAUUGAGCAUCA	2.94 ratio
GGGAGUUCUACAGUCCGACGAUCGCUGUCAGGCCUCAUCCACUGUGAAUCCCCCAGGUUCUUAAAACUUUAAAAUUUUUGAAUUUUAGAUAAUUAUGGAAUUAAUGCAAUGUCACACACUACUGUUAACUCUGUGGCCAAUUACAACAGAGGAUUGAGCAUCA	3.72 ratio
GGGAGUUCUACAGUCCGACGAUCUUAAUAGGACCAGGGACCAUGUAACUGAGGUGAGGGUUGUAGUAGAUGCUUCCAGUGUCAGUAUGCCUGUUAAUUUUAAGAGCUUCCCUUUCUUGCAGAGAACAAGUCUGCCCAGAUUCCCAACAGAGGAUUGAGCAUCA	0.465 ratio
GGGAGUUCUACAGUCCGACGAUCUCCGAGGGCAGCGGUGGGAGCACACCCGGCUGGCACACGAGGGAGGAGCAGCCGCCGUCGGUAGCUGAGGGCUACGCCUCGCAGGACGUGUUCAGCGCCACCGAGACCAGCCUGUGGUACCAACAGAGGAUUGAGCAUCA	0.178 ratio

Set 2
Target: Ras GTPase-activating protein-binding protein 1, RRM domain (G3BP1, Homo sapiens, UniProt Q13283)
Sequence of UniProt Q13283 (whole entry, looked up): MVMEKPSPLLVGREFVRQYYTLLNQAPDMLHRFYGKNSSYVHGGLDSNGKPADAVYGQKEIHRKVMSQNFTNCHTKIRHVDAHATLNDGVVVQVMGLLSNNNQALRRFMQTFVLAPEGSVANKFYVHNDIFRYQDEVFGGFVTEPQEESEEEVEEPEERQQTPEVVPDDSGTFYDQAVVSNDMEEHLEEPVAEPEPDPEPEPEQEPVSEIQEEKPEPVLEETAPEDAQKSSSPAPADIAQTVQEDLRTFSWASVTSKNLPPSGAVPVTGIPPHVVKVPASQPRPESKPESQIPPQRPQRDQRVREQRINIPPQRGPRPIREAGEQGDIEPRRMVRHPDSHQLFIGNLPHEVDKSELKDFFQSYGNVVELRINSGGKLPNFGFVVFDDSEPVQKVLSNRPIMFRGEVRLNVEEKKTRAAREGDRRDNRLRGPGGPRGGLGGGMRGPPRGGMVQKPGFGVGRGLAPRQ
Method: RNA Bind-n-Seq
Form: RNA
Sample: in vitro
Tested at: 1 µM
Setting: whole 134-nt RNA, ends assumed
Together with: 150 mM KCl
Relative to: input library
Direction: higher = stronger binding
Strand	log2 enrichment
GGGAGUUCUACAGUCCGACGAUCGCAGGAAGUACAAACAAAUGGAAAUGCUUCGGAUAGUGGCAGGGGUGGGGGUUGCUAAGGAAAGGGUGGGAUGGGAGUGGGUAAAGAGUUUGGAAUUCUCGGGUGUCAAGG	0.81
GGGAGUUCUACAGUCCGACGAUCUCAAGUCCUGUGCUACACAUCGUAUGUACCGAAUCGGGUGGGUUUUUGGGUGGGAAAGUAUUAUGUUACGCCGUUCGGAUCUGCACUUCCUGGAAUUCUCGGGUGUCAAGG	0.369
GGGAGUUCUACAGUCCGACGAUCCUGUGCUACACAUCGUAUGUACCGAAUCGGCCCCCCCGGGGCCCCCCCGGCCCCCCCGGGGAAAGUAUUAUGUUACGCCGUUCGGAUCUGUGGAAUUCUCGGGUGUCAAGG	-0.42
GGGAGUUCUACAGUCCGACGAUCUCCUGUGCUACACAUCGUAUGUACCGAAUCGGGGUUUUUGGGGUUUGGGGAAAAAGGGGAAAGUAUUAUGUUACGCCGUUCGGAUCUGCAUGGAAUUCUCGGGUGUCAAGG	1.1
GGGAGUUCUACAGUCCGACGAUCAGUCCUGUGCUACACAUCGUAUGUACCGAAUCGGCCCCCGGCCCCCGGGCCCCCGGGAAAGUAUUAUGUUACGCCGUUCGGAUCUGCACUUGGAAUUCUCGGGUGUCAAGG	-0.486
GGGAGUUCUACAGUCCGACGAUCUUGUAUUAAGACAACGCUCCUCGACUUAGAUGCCUUGGCAAGACAUUUGGCUGACUGUAUUCGAAGGUAAAAUUUGAUGUGAAAUUGACAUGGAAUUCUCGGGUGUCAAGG	0.352
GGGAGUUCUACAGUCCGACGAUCUGCGAGGUGGAUUUUGUUUAUUUUUUUAGCUCAUUUCCAGGGGUGGGAAUUUUUUUUUAAUAUGUGUCAUGAAUAAAGUUGUUUUUGAAAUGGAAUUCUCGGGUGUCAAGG	0.885
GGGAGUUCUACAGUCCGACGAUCGCAGGAAGUAAAAACAAAUGGAAAUGCUUCGAAUAGUGGCAGGGGUGGGGGUUGCUAAGGAAAGGGUGGGAUGGGAGUGGGUAAAGAGUUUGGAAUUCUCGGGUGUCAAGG	1.49
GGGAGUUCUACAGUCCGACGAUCCUCAAGUCCUGUGCUACACAUCGUAUGUACCGAAUCGGGUUUGGUUUGGUUUGGAAAGUAUUAUGUUACGCCGUUCGGAUCUGCACUUCCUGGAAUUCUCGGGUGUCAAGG	-0.29
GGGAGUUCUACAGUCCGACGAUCUUGGGUCCAGACUGCGCCACAGCCUCUCGGGAGACGUGGGCCCUCGGAACCUUUUUAGUGCCGGACUCCGGGCCGCAGGCAGUCCCGCGGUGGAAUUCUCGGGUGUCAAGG	-0.898

Set 3
Target: RNA binding protein fox-1 homolog 2, RRM domain, GST-SBP tag (RBFOX2, Homo sapiens, UniProt O43251-10, residues 100-194)
Method: RNA Bind-n-Seq
Form: RNA
Sample: in vitro
Tested at: 365 nM
Setting: natural RNA segment, single round, ends assumed
Relative to: no-protein control
Direction: higher = stronger binding
Target sequence (chain): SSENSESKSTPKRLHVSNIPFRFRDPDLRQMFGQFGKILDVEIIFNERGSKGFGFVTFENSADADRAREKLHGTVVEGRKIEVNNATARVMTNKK
Strand	RBNS enrichment (R)
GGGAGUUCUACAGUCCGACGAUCUUAUGGACUCUGAAGACACUUCAAAACAUUAAAAGUCCUUAUGUCUUUGGUAAUGAAACAAUAACACUCAAUGAAGGAUGUAUUAAAAUUUUUGACUUAAUUUUGAAAUCUGGAAUUCUCGGGUGCCAA	0.434
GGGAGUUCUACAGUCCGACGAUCUACAAUCAAGUAACUGAAAUUCUUGGGAAGACACUUUGCUCCUCAUCUUUCUCCCCGAAACAAUGUUGUUUUGUUUUGUUUUUUUUCCUUAAUUUGCACGAAAACAAAAAUGGAAUUCUCGGGUGCCAA	0.863
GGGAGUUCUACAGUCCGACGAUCUUCAACUCCUGUUAAUACCCAUAAUCAGUAACCUAUCAAGAAAAGCCCUUAUUUGGAAAGUGUGAAAUUUGUAUUUGGAAAAGCUGCCUGGAGAGAAGAACUGUGUCCUUUGGAAUUCUCGGGUGCCAA	0.92
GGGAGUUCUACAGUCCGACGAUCCACCCAGAACAUUUCUGCUGCGUCAGCUGCGGAGAGCCUUUUGGAGAAGAGGGUUUCCACGAGCGGGAGGGUCGUCCGUACUGCCGGCGGGACUUCCUGCAGCUGUUCGCUGGAAUUCUCGGGUGCCAA	0.306
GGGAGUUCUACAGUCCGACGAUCGUGCUAUUCACGCAGGUUUAUUCCCUCCAUGGCCUCCGGGCUUUGCAUGUCUAUGAUGUGUGUGUCGCUGGGAAGGUCAUGCUUGCCAGUUAUGGGUGGAUCGCAGCUCUUGGAAUUCUCGGGUGCCAA	0.346
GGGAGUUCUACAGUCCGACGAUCGAUUCUCUCCUCUCCCAUCCCAGAAAACAAAACAAAAUAAUGCUUUUCGAAAUUGUUUCUAGGACUUUAAAACAUAAUGGUAUAUCCAAAAUUCUUUAUUUCAGAAUGCAUGGAAUUCUCGGGUGCCAA	1.33
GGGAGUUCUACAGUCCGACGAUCAAGCUCCCUAGAGGGGCAAAAGAUGGAGUGAGCCACAGGAAGUUUGGGGCGUGGUGAGUUGGAAUGAUACGUCCAUUUCUCUAUGAAAUAUUUGCUACUAGACUGUUCAUUGGAAUUCUCGGGUGCCAA	1.67
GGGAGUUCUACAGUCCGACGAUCUGAUUAGUUGAGUGACAGGAGUUAACAGUGAUAGUGGUUUGAGCUUUGUGUCUGUGACUCUUGUCUUCAUGGAGAUUCCAUUCUGACCCACUUCCUCAUGUCUAAACUGAUGGAAUUCUCGGGUGCCAA	0.334
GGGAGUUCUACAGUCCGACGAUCGUGGUGCAAUCAUGGUUCACUGCAGUCUUGACCUUUUGGGCUCAAGUGAUCCUCCCACCUCAGCCUCCUGAGUAGCUGGGACCAUAGGCUCACAACACCACACCUGGCAAUGGAAUUCUCGGGUGCCAA	0.287

Set 4
Target: Interferon regulatory factor 5, full length, phosphomimetic (IRF5, Homo sapiens, UniProt Q13568-2, residues 1-514, K96S/S451D/S453D/S456D/S462D)
Method: protein-binding microarray
Form: double-stranded DNA, one strand shown
Sample: in vitro
Tested at: 250 nM
Setting: 60-bp whole probe
Together with: salmon DNA 0.4 mg/ml
Relative to: random background probes
Direction: higher = stronger binding
All sequences stand within: GCCTAGCAC … GTCTTGATTCGCTTGACGCTGCTG
Strand	log fluorescence [z-score]
TTAGGACAGCTTATCCTTTAGTGCTAG	-0.389
TTATGTGTAGGTCTTAAATAGTGCTAG	0.0829
TTAGGATTGGGTCTCGGTTAGTGCTAG	0.24
TCATAAACCATTTTGGTACTGTGCTAG	0.524
TTGGATTTCAGTATCGATTAGTGCTAG	8.26
GACGCACTGCTTTTCCTGACGTGCTAG	-0.0697
GACGGTTTTGGACTGGGGACGTGCTAG	0.125
TCATGAATGCCCTCTAACACTGTGCTA	-0.134
GACGGTTTCCTTCTCCTGCCGTGCTAG	0.782
GACGATTTCAGAATCGAGACGTGCTAG	0.601
GACGAACTGAGTCTCTAGACGTGCTAG	-0.437
ACTTCCCTCGGGTTGCGGAGCGTGCTA	-0.165
TTAGGTATCGGGACTGGGTTGGTGCTA	1.7
TTAGGTTGCCTACTGCTTTAGTGCTAG	-0.416
GACGGATTCCTTTCCCTGACGTGCTAG	0.481
GAAGGTTTCCTTTTCCTGACGTGCTAG	0.916
TTAGGACTGGGGACTGGGTTTGTGCTA	-0.505
TGCTTTCCAATTCTCTTTTCGTGCTAG	1.68
TTAGAGATCGGGTTTCGATTAGTGCTA	6.8
GACGGTCTCGGTCTCAGGACGTGCTAG	-0.0405

A few entries again (set 4):
Strand	log fluorescence [z-score]
ACTTCCCTCGGGTTGCGGAGCGTGCTA	-0.165
TTAGGTATCGGGACTGGGTTGGTGCTA	1.7
TTAGGTTGCCTACTGCTTTAGTGCTAG	-0.416
GACGGATTCCTTTCCCTGACGTGCTAG	0.481
GAAGGTTTCCTTTTCCTGACGTGCTAG	0.916
TTAGGACTGGGGACTGGGTTTGTGCTA	-0.505
